Assay results collected from several papers.
Numbered parts are unrelated; each lists some results of a single study. Substitutions count along the parent as printed.

Block 1
Target: CCNB2, cyclin fold, Cln2 fusion (human)
Technique: yeast growth competition, sequencing
Sample: yeast
Setting: weak parent motif
Baseline: not given
Reading: higher = stronger binding
Parent: SCAPER docking peptide (human); SNARRSLNFGGST
| Substitution | normalised enrichment score |
| --- | --- |
| S6W | 0.371 |
| S6R | 0.632 |
| S12K | 0.414 |
| S6I | 0.332 |
| R5A L7A | -0.0297 |
| S6L | 0.523 |
| G11L | 0.267 |
| T13G | 0.216 |
| N8A | -0.00825 |
| N2P | 0.0798 |
| R4S | -0.238 |
| A3D | -0.101 |
| N8E | -0.0859 |
| G11R | -0.473 |
| F9Y | -0.105 |
| R5H | 0.34 |
| S1A | 0.38 |
| R5E | -0.0184 |
| S12M | -0.65 |
| A3K | 0.265 |
| N8I | 0.408 |

Block 2
Target: Sal-like protein 4, full length isoform B (SALL4, Homo sapiens, UniProt Q9UJQ4-2, residues 1-616)
Technique: universal PBM
Molecule type: double-stranded DNA, one strand shown
Sample: in vitro
Concentration: not given
Setting: 8-mer, flanks averaged, mean of replicates
Reading: higher = stronger binding
| Strand | E-score |
| --- | --- |
| AGTTCTGA | 0.0571 |
| GTAGCAAC | 0.0674 |
| TTCGGCAA | -0.00407 |
| AATGGGCC | -0.314 |
| GAAGTTAA | 0.0973 |
| GCTTGGTA | -0.0471 |
| GCGTCCAC | -0.241 |
| AAACGGGT | 0.0286 |
| CTCTAAAA | 0.0815 |
| AAACCAGA | -0.0324 |
| AGGAGGTA | -0.0222 |
| AAGTGGGT | -0.162 |
| CCGTGTCA | -0.22 |
| ATCCTTCA | 0.134 |
| GCAGGGCA | -0.165 |
| GCTGATCA | -0.0991 |
| CAGCCACC | -0.181 |
| GGCCTCAC | -0.247 |

Block 3
Target: RNA binding protein fox-1 homolog 2, RRM domain, GST-SBP tag (RBFOX2, Homo sapiens, UniProt O43251-10, residues 100-194)
Technique: RNA Bind-n-Seq
Molecule type: RNA
Sample: in vitro
Concentration: 365 nM
Setting: natural RNA segment, single round, ends assumed
Baseline: no-protein control
Reading: higher = stronger binding
| Strand | RBNS enrichment (R) |
| --- | --- |
| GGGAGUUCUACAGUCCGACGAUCUCCAGGUGUCUGUGUUCCCAGGAACCAAAUGGGGAGUCUGGGGCCCGUUUUCCCCCCAGGGGGUGUCUAGGUAGCAACAGGUAUCGAGGACUCUCCAAACCCCCAAAGCAUGGAAUUCUCGGGUGCCAA | 1.74 |
| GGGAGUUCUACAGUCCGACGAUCUUCAUGUCAAGAUCACUACAACACCAUCUCUUCCAUUCACAAAGUUGAGUCUGUUCCUUUCAUCUAAUCCAUUGGUUCUCAACCUUCCUAAUGCUGUAACCCUUUAAUACUGGAAUUCUCGGGUGCCAA | 0.838 |
| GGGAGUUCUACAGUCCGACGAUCUGAGUACUGAUUUCAUGUUGAAUUGUAUCCCACACAUCAUGGUCUGCAGCUUCUUUUUCACAUGUAGUGUCUCCUUCAAGUUACAUCGUGUGUAUUAUUUAAUGUCACUAUGGAAUUCUCGGGUGCCAA | 0.388 |
| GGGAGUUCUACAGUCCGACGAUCUUACUUUAUUAAGAUUUUACAGCGAAACCCUUACAUGAGUAAUUGAAAUGAAAUUAAAUGAGAUUACAGCAUAAUGAAGAAGAAAACUAGAAUCUAACAGGUAUGACACAUGGAAUUCUCGGGUGCCAA | 0.425 |
| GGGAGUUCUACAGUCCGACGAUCCAGAGGGAUGGUUCCAUUUUGACAGUGACUUUGGUUUUUUCCUCCGUAUAGAUUCAUCGUGUAGUUCUUCCCAAUAACAAUUACCCAUAUCAUUGAUGUAAAACCCUUGGUGGAAUUCUCGGGUGCCAA | 1.11 |
| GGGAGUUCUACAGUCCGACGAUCUGUACCUGUGGGUCUGUCCUCUGCUCUGUGCAGAUGGGUUUUACUGUCUGCUGUGUUUUCUUACGAAAAGAGUUUCGUUCUGCCAGUGCUGUGAGUUGGGAAUUCCUGCGUGGAAUUCUCGGGUGCCAA | 0.583 |
| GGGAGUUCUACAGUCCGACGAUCCCCUUACCCAUCUUGCUUCCAAGACCAUUUGUAGUGAGCGAGUGGAUGCUGUGCUACGUGUGAAAUCUGUCUUUGCGGGGCCUGUCUCAGUGAUUCGCUUUUGGUAUUUGUGGAAUUCUCGGGUGCCAA | 0.568 |
| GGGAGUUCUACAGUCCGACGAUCUUUUCUUCCUUGCCUUUGGGUGUCUGCUUGCCACUUCCUAAGAAUUCUUGUAGAAGGCAGUUUCCUCUACUUGCCCAAGAGCACUGAGUACUUCUCUACUAUCCUAUUAUUGGAAUUCUCGGGUGCCAA | 0.496 |

Block 4
Target: RING finger protein unkempt homolog, zinc fingers 1-6, GST-SBP tag (UNK, Homo sapiens, UniProt Q9C0B0, residues 30-357)
Technique: RNA Bind-n-Seq
Molecule type: RNA
Sample: in vitro
Concentration: not given
Setting: RNA with constant flanks, ends assumed
Baseline: input RNA pool
Reading: higher = stronger binding
Residues (chain): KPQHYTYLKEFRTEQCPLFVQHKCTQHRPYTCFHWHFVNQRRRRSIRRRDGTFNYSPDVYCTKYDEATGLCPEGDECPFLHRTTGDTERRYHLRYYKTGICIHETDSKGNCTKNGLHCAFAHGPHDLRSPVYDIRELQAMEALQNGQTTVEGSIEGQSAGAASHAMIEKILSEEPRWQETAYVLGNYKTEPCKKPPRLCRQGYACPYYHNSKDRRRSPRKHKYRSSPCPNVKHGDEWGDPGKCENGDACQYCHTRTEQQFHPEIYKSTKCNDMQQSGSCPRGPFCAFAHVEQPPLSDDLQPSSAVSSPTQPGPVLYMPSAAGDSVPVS
| Strand | bound/input enrichment [ratio] |
| --- | --- |
| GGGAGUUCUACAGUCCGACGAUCUGCUGGAACGCAGCAGGAGACAAAGUUGGAGCCAGUGCUUCGGACGGUUCAGUUUGUGUCUCCGACCUUCGGAAAUAGCGUUACUAGUUGGAAGCCAUGGACCGACUAUGAAUGUGUACACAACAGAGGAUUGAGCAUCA | 0.21 |
| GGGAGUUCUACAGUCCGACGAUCUCCUUGGACCCCAGUCAUAUAGGUGACCUGCAAAAAGCAGACACCAGUAGUCAAGGUGCUUCCGUGUUUCUCUCAAAGGACUACGAAAUAGAAAAUCAAAAUCCCCUGGCCUCUCCUACGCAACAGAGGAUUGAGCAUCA | 1 |
| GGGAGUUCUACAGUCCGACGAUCAGUGUUAAAUUUAACCCUGUUGAGACAUUUCUCUUGGGAAGUUGUGCUUCUGAUAGGAAUACCGUACUGUAUGAUAUGCGGCAAGCUACUCCUUUGAAAAAGGUUAUCCUGGAAAUGAGGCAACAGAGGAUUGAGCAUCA | 0.246 |
| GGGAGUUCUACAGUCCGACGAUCAAAGUCUUUGGAGGCACUGUGCAUAAAAAAAGUGUUAGAGAGGAUGGAGUUUUCAACAUCCGUAUGGAUAAUACGUGUUCAUUAUUCAGGGGCCUGCAGAAGGAAGAAAUUGUUUUACUUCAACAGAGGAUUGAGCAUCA | 0.154 |
| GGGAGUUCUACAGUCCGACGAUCCACAAGAUGGAGCAGGAAAUGACCCGGUUACAUCGGAGAGUGUCAGAGGUGGAGGCUGUGCUCCGUCAGAAGGAGGUGGAGCUGAAGGCCUCUGAGACUCAGAGAUCCCUCCUGGAGCAGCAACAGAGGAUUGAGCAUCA | 0.1 |
| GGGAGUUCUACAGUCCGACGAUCUCCUUUCAGCGGCGCGCGGCUGCAAGAUGGCGGUGCAGAUUUCCAAGAAGAGGAAGUUUGCCGCUGAUGGCAUCUUCAAAGCUGAGCUGAAUGAAUUUCUCACUCGGGAGCUGGCUGAAGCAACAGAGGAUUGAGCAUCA | 0.0895 |
| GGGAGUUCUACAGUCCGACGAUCUUUCCAAAGCAGCCAGGAACAUCAGGUGCUUAUCCUCUUACUUCACCCCCUACAUCUUAUCACCGCACAGUCAAUCAGUCUCCCUCAAUGAUGCACACACAGUCUCCAGGAAAUCUGCAUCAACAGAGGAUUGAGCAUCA | 0.535 |
| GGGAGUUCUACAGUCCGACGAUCUCUAGAAUGUCUUCAACUAAAUCAAGUGGAAGUGAAUCUGAUAGAUCAGAAAGACCUGUAUCCGUACGCCAGUCAACUUUCAUCAAAGAAGCUCCAAGCCCAACCUUAAGAAGAAAAUUGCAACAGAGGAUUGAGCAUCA | 0.212 |

Some of these lines once more (block 1):
| Substitution | normalised enrichment score |
| --- | --- |
| A3D | -0.101 |
| N8E | -0.0859 |
| G11R | -0.473 |
| F9Y | -0.105 |
